Measured values of several laboratories.
A part holds a random share of what one study measured.

Block 1
Target: Interferon regulatory factor 5, full length, phosphomimetic (IRF5, Homo sapiens, UniProt Q13568-2, residues 1-514, S451D/S453D/S456D/S462D)
Method: protein-binding microarray
Form: double-stranded DNA, one strand shown
Sample: in vitro
Tested at: 940 nM top
Setting: 60-bp whole probe
Added: salmon DNA 0.4 mg/ml
Reference: random background probes
Direction: higher = stronger binding
All sequences stand within: GCCTAGCAC … GTCTTGATTCGCTTGACGCTGCTG
`GCTTCTATGTAGTTGATGAAGTGCTAG` — result for “fitted relative affinity”: -0.262 z-score.
For `TTAGGTCTCCAACTGCTTTAGTGCTAG`, “fitted relative affinity” read -0.281 z-score.
Under “fitted relative affinity”, `ATCTTAATAAGGTTTCCAATCGTGCTA` is recorded as 0.209 z-score.
`TTTGGACTGGACTATCGGTTAGTGCTA`: “fitted relative affinity” -0.134 z-score.
`TTAGATTTCAGATCCGATTAGTGCTAG` — result for “fitted relative affinity”: 0.0266 z-score.
Under “fitted relative affinity”, `TTAGGACAGGGTCTCGGTTAGTGCTAG` is recorded as 0.436 z-score.
Under “fitted relative affinity”, `GACGATCTCAGACTCGAGACGTGCTAG` is recorded as -0.31 z-score.
Under “fitted relative affinity”, `GACGGTTTCGGTCTCTGGACGTGCTAG` is recorded as 13.7 z-score.
Under “fitted relative affinity”, `GACGGTCTGCTTTTCCTGACGTGCTAG` is recorded as -0.115 z-score.
For `GACGGTATCCTACCGCTGACGTGCTAG`, “fitted relative affinity” read -0.372 z-score.
`ACATTCCATGAGCCCACTGGGTGCTAG`: “fitted relative affinity” -0.0645 z-score.
`GACGATATCGGGTTCCGAGACGTGCTA` — result for “fitted relative affinity”: -0.287 z-score.
`TACGGACTGCTTCTCCTGACGTGCTAG` — result for “fitted relative affinity”: -0.19 z-score.
`TCAAGTCTTCTCCTCTAACTGTGCTAG`: “fitted relative affinity” 0.739 z-score.
`GACGGTTTCGGACTTGGGACGTGCTAG` — result for “fitted relative affinity”: 5.18 z-score.
Under “fitted relative affinity”, `TCATCTCCGGGGTCTGTGACTGTGCTA` is recorded as -0.111 z-score.
`GACGATTCCGGGACTGGAGACGTGCTA`: “fitted relative affinity” -0.342 z-score.
`GTGAGAAATAAGTTTCTTTTGTGCTAG` — result for “fitted relative affinity”: 0.467 z-score.
Under “fitted relative affinity”, `GTGCCCGCTGCTTCCGGTGCGTGCTAG` is recorded as -0.621 z-score.
`TTAGTTTTCAGACTGGATTAGTGCTAG`: “fitted relative affinity” 0.386 z-score.
For `CTAGGTTTCGGGTATCGGTTAGTGCTA`, “fitted relative affinity” read 10.2 z-score.
For `TTAGAACTGAGTCTCGGTTAGTGCTAG`, “fitted relative affinity” read 3.26 z-score.
`TTAGGTTTCGGTCTCGCTTAGTGCTAG`: “fitted relative affinity” 14.3 z-score.
`GACGATATCAGTCGCGAGACGTGCTAG`: “fitted relative affinity” -0.183 z-score.
For `CGGGGGTGGGGAGAGCCCCTGTGCTAG`, “fitted relative affinity” read 1.73 z-score.

Block 2
Target: RNA binding protein fox-1 homolog 2, RRM domain, GST-SBP tag (RBFOX2, Homo sapiens, UniProt O43251-10, residues 100-194)
Method: RNA Bind-n-Seq
Form: RNA
Sample: in vitro
Tested at: 365 nM
Setting: natural RNA segment, single round, ends assumed
Reference: no-protein control
Direction: higher = stronger binding
Target sequence (chain): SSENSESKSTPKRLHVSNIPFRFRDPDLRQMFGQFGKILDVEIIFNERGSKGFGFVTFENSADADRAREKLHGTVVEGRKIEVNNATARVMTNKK
`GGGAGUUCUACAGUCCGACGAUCGAGGCAGGGACCACAGAACUGUCCAGCCAACACGUCUGAACUGGAACUGUUCCACUUGAACCCGGGAGCUUUAAAGCUUUAUUUAUUUAUAGCUUCUUAUUAAAAAUUUAUGGAAUUCUCGGGUGCCAA`: “RBNS enrichment (R)” 0.592.
Under “RBNS enrichment (R)”, `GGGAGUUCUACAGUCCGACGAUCGGGAAGGGAAGGAACCUGCAGCAGGGUUUCGAAGACAGCCAGGCCCUCCGUGAUUGAGGGCUCAUAUAGCCGCUGAGGGCAGCCUGCAGCCAGGUGGCCUCACCUGCUGCUGGAAUUCUCGGGUGCCAA` is recorded as 0.315.
Under “RBNS enrichment (R)”, `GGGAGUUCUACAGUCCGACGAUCUAUGCUGGAUAUCCAGGUUCUCGCCAGGCCCCGAUACAUGAAUAACAAACCCAAGAAACGCAUCCCCAUUGUGUGAUGUGUUCAGAUGCAUCUGGCACCAAUUAGGUAUUUGGAAUUCUCGGGUGCCAA` is recorded as 0.969.
Under “RBNS enrichment (R)”, `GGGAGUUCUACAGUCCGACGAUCGUCUAGCCCUGUGCACUUACCUCAGUACUCAGUACUUACUCAGUACUAACUCAGUACUCGUGGGAGGACACCCGACCCGGGUGUUCUUUGAGAAGCAGCUGAGUGAGGCAUGGAAUUCUCGGGUGCCAA` is recorded as 0.332.
For `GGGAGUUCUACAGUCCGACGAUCUCCCACCGUCCACUCCCCGUCCCCGGGGGCCUGCCCUCAGUCUAAGCUUUGGAACACUCUCACCUCACCUGCCGCCCAAGUCAAAUCUAUUUAUUUUUUUACUGAACCCAUGGAAUUCUCGGGUGCCAA`, “RBNS enrichment (R)” read 0.913.
`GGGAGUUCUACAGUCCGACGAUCCCUCAUCUGGAGUUUGAUGGUUUACAGAUGUCUGACAGUUCCUCAGCUCUUGUGCCAAGGAGGAGUGGUUGUUGUUGUUUUGUUUUGAAGACUUAAACUCUGCACAAAGAUGGAAUUCUCGGGUGCCAA`: “RBNS enrichment (R)” 2.14.
For `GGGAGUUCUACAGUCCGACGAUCCAUCGUGUCUGUCCUGAGAGGCUCCACAAUGCCCACCCGCAUCGCCAUUCUGUAGUCUUCAGGGUCAGCUGUUGAUAAAGGGGCAGGCUUGCGUUAUUGGCCUAGAUUUUUGGAAUUCUCGGGUGCCAA`, “RBNS enrichment (R)” read 0.487.
For `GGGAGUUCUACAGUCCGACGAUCACCUCUAAUUUAUUUUGUUGAAUUUUUAUUAUUUGUUUUCCCGCAAAGCGGAAAAUGUUUUAUUUUGUAAUUAUUGUGAUCUCCUGUGGCCCCAGCCUGGCCCAGCCCCCUGGAAUUCUCGGGUGCCAA`, “RBNS enrichment (R)” read 1.07.
`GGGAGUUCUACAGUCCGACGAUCACUGUAUCCUAUGAGUGACGUGUGUGUUGGGGGAGGGUGGGCCUGCCUGGUGUUACACAGAGCAUGGCGUGGCUGGUCUGGAGCGCAUAGCAAUAAUACUGUGCUGUGGUUGGAAUUCUCGGGUGCCAA` — result for “RBNS enrichment (R)”: 2.03.

Block 3
Target: Sal-like protein 4, full length isoform A (SALL4, Homo sapiens, UniProt Q9UJQ4, residues 1-1053)
Chain of UniProt Q9UJQ4 (whole entry, looked up): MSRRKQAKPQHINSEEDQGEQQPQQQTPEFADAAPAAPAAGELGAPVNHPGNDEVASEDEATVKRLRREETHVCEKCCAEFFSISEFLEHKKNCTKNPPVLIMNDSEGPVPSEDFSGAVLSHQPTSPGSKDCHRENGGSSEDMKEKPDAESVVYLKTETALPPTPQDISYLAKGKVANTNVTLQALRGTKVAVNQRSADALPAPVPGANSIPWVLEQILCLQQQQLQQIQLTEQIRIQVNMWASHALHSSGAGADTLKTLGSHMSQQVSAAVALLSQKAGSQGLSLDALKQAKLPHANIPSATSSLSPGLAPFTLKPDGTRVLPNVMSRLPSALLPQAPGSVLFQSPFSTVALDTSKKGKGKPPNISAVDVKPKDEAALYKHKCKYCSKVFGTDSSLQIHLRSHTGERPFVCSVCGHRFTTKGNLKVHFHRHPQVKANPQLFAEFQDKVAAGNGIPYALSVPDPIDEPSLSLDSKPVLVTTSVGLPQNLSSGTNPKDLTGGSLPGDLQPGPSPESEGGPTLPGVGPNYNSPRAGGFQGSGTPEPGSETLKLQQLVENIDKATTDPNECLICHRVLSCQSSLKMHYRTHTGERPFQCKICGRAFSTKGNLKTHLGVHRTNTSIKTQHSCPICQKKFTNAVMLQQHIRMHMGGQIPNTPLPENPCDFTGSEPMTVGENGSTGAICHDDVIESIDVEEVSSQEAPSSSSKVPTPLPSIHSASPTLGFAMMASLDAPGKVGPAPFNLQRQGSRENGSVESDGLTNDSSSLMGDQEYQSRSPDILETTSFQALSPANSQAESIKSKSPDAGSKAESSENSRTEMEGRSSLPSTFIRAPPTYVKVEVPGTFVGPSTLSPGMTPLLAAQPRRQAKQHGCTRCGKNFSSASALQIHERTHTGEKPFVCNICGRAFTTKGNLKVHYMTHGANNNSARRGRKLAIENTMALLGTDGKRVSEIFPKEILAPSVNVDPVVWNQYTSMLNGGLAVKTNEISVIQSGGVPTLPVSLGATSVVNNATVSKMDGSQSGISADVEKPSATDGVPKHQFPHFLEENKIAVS
Method: universal PBM
Form: double-stranded DNA, one strand shown
Sample: in vitro
Tested at: 600 nM
Setting: 8-mer, flanks averaged, mean of replicates
Direction: higher = stronger binding
With `ATCGGGGC` the E-score was -0.27.
The E-score of `CGATCGGA` is reported as -0.182.
`ATTAGAAT` gave an E-score of 0.294.
With `TCACATAA` the E-score was 0.287.
For `GACGCACA`, the E-score was -0.084.
`AATATTCG` has an E-score of 0.377.
`CATGTTTA` has an E-score of 0.239.
`ACGAAGCG` has an E-score of -0.215.
`CTAAGGCC` gave an E-score of -0.274.
For `ACTTAGCT`, the E-score was -0.0927.
With `GAGCTCGC` the E-score was -0.118.
`CCGAGGAC` gave an E-score of -0.288.
`CTATCCTA` gave an E-score of -0.0425.
For `ATCTGCCG`, the E-score was -0.184.
With `CACGATAG` the E-score was -0.018.
The E-score of `GAATCGGA` is reported as 0.0215.
`GATGTCTA` has an E-score of 0.169.
`AGCAATGC` gave an E-score of 0.0304.
`ACGAAAAG` gave an E-score of 0.118.
With `ATCGTTAG` the E-score was 0.118.
`GTAAGGAC` gave an E-score of -0.161.
`AGTATCAT` has an E-score of 0.187.
With `AGTGACGG` the E-score was -0.164.
For `GCCGGCGA`, the E-score was -0.355.
With `GTCCTAGA` the E-score was -0.17.

Block 4
Target: RING finger protein unkempt homolog, zinc fingers 1-6, SBP tag (UNK, Homo sapiens, UniProt Q9C0B0, residues 30-357)
Chain of UniProt Q9C0B0 (30-357, looked up): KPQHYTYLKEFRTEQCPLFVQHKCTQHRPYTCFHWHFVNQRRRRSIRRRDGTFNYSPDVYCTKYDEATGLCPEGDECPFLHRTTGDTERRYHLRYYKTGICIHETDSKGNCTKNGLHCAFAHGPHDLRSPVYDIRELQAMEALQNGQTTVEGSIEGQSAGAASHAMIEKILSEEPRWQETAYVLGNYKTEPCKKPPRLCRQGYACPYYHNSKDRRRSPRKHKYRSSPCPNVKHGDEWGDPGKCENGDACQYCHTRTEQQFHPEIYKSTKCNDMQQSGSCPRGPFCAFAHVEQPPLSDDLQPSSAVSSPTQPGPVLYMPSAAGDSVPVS
Method: RNA Bind-n-Seq
Form: RNA
Sample: in vitro
Tested at: 100 nM
Setting: RNA with constant flanks, vertebrate orthologous sites, ends assumed
Reference: input RNA pool
Direction: higher = stronger binding
`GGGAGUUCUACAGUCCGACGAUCCAUUAACACACAAAAUGUCUCCAGGGGGGUAUUAGAUUUGAUUUCUUACAUAUAAAACCAACCAACCAACCAACCAACCAUUUUUAAAGUAGAAGAGGGUUUUAGAUAGUAAAUGAAAUACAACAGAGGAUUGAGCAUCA` has a bound/input enrichment of 2.11 ratio.
`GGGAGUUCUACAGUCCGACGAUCAGUAGUUUUAAGCUUGUUUGCACAGUUCUUUUUUUCCAUUGGAAAUGGAAUUCAUUGCCUUAGGUCUUUUUAAAUAGUGUAUUAUUAUCGUUGGGGCUGGCUCUAUGCUUGAAAACCAGUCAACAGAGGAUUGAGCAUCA` gave a bound/input enrichment of 3.4 ratio.
For `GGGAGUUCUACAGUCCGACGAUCCGCGGAGGAAGAGCCCACUCGCCGCUGCCCAUGGAUGAUUGAGGAACCCUCGCCAGCCCUAGGGGGCAGGGCACAGUAUUUUCUUUUUCUGCCUCAGAGUCUCCAAAAGCAGAAGUGGCACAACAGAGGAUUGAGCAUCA`, the bound/input enrichment was 0.506 ratio.
The bound/input enrichment of `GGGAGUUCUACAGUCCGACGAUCAGAUUUGGACCUUGGAGCCGAACUAGAGACUAGCAAAAGUAAAGCAGACUUGUAAAAUUAUAGUCAUAUGCAGCUGCACAACAAAAGCACCACCACUAGCAGCUGUGUUAAAGGAUUUAUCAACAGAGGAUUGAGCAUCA` is reported as 0.596 ratio.
For `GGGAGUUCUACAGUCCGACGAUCGUGCAAGGAGAUUAUCCCAACUAGUGAAUUUAUUAACAGUAAGUUGACAGCAAAAGCAAAUAGGCAACUUCAAGAUCCUUUAGUAAUCAUGACAGGAAACAUCCCAACGUGGCUCACUGACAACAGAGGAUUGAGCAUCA`, the bound/input enrichment was 1.24 ratio.
For `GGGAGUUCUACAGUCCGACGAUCCAUUUUAUAUAUCAAAAAAAGGCUUUGAAUUUGAAUUUUUAAACAAUUGCUAGUUUUAAUUAGCUCUGCCCUCAUAAAGUGUUAUAAUUCACCAUAAACAGAUAUCGGUCUGAAUUACUUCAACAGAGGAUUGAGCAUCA`, the bound/input enrichment was 0.328 ratio.
`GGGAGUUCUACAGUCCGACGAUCAAACGCAAUGGUUGAAGGCUCUGAGCUCAAAAAGAUUCGAUCUAACUCUAGGGUGUAUCACCGAUAUUUUCUUUUAGAUGCAGAUAUGCAGUCUCUGCGCUGGGAACCUUCAAAAAAGGACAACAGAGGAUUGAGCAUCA` gave a bound/input enrichment of 0.283 ratio.
`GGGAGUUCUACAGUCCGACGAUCAAGUAGUUUUAAGCUUGUUUGCACAGUUCUUUUUUCCAUUGGAAAUGGAAUCCAUUGCCUUAGGUCUUUUUAAAUAGUGUAUUAUCGUUGGGGCUGGCUCUAUGCUUGAAAACCAGUUUACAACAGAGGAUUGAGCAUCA` has a bound/input enrichment of 2.44 ratio.

Some of these lines once more (block 3):
`CTAAGGCC` gave an E-score of -0.274.
For `ACTTAGCT`, the E-score was -0.0927.
With `GAGCTCGC` the E-score was -0.118.
